Measurements collected from several papers.
Protocols differ between the studies behind these lines. “And” joins repeats or separate records; there may be more than shown. ± marks the error that the study gave.
Organism: Plasmodium falciparum

Compound	test	system	conditions	IC50
Cc1[nH]c(/C=C2\N=C(c3ccc[nH]3)C=C2OC(C)C)cc1Cc1ccc(Cl)cc1	parasite growth, SYBR Green fluorescence	Tm90-C2B (atovaquone-resistant), asexual blood stage	72 h	0.0142 µM
N=C(N)NCCCCC(=O)Nc1cc(C(F)(F)F)cc(NC(=O)c2cc(C(=O)Nc3cc(C(F)(F)F)cc(NC(=O)CCCCNC(=N)N)c3O[C@@H]3CCNC3)ncn2)c1O[C@@H]1CCNC1	parasite growth, stage-specific treatment		12 h, early to late schizont stage	4.4 ± 0.24 µM
CCCCCCCCNCC(O)c1cc(Cl)cc2c1-c1ccc(Cl)cc1C2 (racemic)		3D7	48 h	0.0021 ± 0.0001 µM
CCC1=C(CC)/C(=C/NC23CC4CC(CC(C4)C2)C3)N=C1c1cc2ccccc2[nH]1	parasite growth, SYBR Green I fluorescence	D6, chloroquine-sensitive	72 h	0.0702 µM
CCc1nc(N)nc(N)c1-c1ccc(Cl)cc1	cell growth	erythrocytes, 3D7	low-folate medium	0.05 ± 0.01 µM
CC1=C(Cn2cc([Si](C)(C)C)nn2)C(=O)c2ccccc2C1=O	parasite growth, [3H]hypoxanthine incorporation	NF54	72 h	7.2 µM
COC1=CC(c2ccc[nH]2)=N/C1=C\c1[nH]c(C)cc1Cc1ccc(OC(F)(F)F)cc1	parasite growth, SYBR Green fluorescence	Tm90-C2B (atovaquone-resistant), asexual blood stage	72 h	0.00288 µM
CCN(CC)Cc1cc(Nc2ccnc3cc(Cl)ccc23)ccc1O		3D7, supernatant of treated uninfected erythrocytes	72 h, 500 nM preincubated 0.16 h	0.0036 µM
O=C1Nc2ccc(Cl)cc2C12NCCCCc1c2[nH]c2ccccc12 (stereo not drawn)	parasite growth, [3H]hypoxanthine incorporation	NF54		> 1 µM
N=C(CC(O)c1nc2ccccc2c2ccc(Br)cc12)Nc1ccc(F)cc1 (stereo not drawn)	parasite growth, HRP2 ELISA	clinical isolates from Gabon	ex vivo, range over isolates	0.0028 to 0.117 µM
COC1=C(OC)/C(=C/c2cc(-c3ccc(OC(F)(F)F)cc3)c(C)[nH]2)N=C1c1ccc[nH]1	parasite growth, SYBR Green fluorescence	Tm90-C2B (atovaquone-resistant), asexual blood stage	72 h	0.427 µM
CO[C@H]1C[C@@H](C[C@H](C)[C@H]2CC(=O)[C@@H](C)/C=C(\C)[C@H](O)[C@H](OC)C(=O)[C@@H](C)C[C@@H](C)/C=C/C=C/C=C(\C)[C@H](OC)C[C@H]3CC[C@H](C)[C@](O)(O3)C(=O)C(=O)N3CCCC[C@@H]3C(=O)O2)CC[C@@H]1OCCO (racemic)	parasite growth, inhibitor, SYBR Green I	3D7		0.97 µM
CC1=C(Cc2cn(CCN3CCOCC3)nn2)C(=O)c2ccccc2C1=O	parasite growth, [3H]hypoxanthine incorporation	NF54	72 h	5.95 µM
Cc1[nH]c(/C=C2\N=C(c3ccc[nH]3)C=C2OCc2ccccc2)cc1Cc1ccc(Cl)cc1	parasite growth, SYBR Green fluorescence	Dd2 (multidrug-resistant), asexual blood stage	72 h	0.0103 µM
CC1=C(Cc2cn(CCOS(=O)(=O)c3ccc(C)cc3)nn2)C(=O)c2ccccc2C1=O	parasite growth, [3H]hypoxanthine incorporation	NF54	72 h	0.77 µM
CC1=C(C)/C(=C/c2cc(-c3ccc(OC(F)(F)F)cc3)c(C)[nH]2)N=C1c1ccc[nH]1	parasite growth, SYBR Green fluorescence	Tm90-C2B (atovaquone-resistant), asexual blood stage	72 h	1.81 µM
CCN(CC)CCCC(C)Nc1ccnc2cc(Cl)ccc12 (stereo not drawn)	asexual parasite proliferation, SYBR Green I fluorescence	clinical isolate SB_05, Mozambique		0.0098 ± 0.00019 µM
CCCCCCNC[C@H](O)c1cc(Cl)cc2c1-c1ccc(Cl)cc1C2		3D7	48 h	0.0311 ± 0.0017 µM
COc1cc(C)c(-c2ccc(O)c3c2C[C@@H](C)N[C@@H]3C)c2cccc(O)c12 (single isomer, unassigned)	asexual parasite proliferation, SYBR Green I fluorescence	Dd2		0.0297 ± 0.0083 µM
CCN(CC)CCCC(C)Nc1ccnc2cc(Cl)ccc12 (stereo not drawn)	parasite growth	3D7, artemisinin-sensitive	72 h	0.0201 ± 0.0014 µM
CCN(CC)CCCC(C)Nc1ccnc2cc(Cl)ccc12 (stereo not drawn)	growth	3D7	96 h, together with: 200 µM IPP	0.003 ± 0.002 µM
N=C(CC(O)c1ccnc2c1ccc1ccccc12)Nc1ccc(F)cc1 (stereo not drawn)	parasite growth, HRP2 ELISA	Dd2 multidrug-resistant, asexual blood stages	3 days	0.531 ± 0.0953 µM
Cc1ccc(C(=O)Nc2ccc(S(=O)(=O)O)c3cc(S(=O)(=O)O)cc(S(=O)(=O)O)c23)cc1NC(=O)c1cccc(NC(=O)Nc2cccc(C(=O)Nc3cc(C(=O)Nc4ccc(S(=O)(=O)O)c5cc(S(=O)(=O)O)cc(S(=O)(=O)O)c45)ccc3C)c2)c1	parasite growth, inhibitor, SYBR Green I	3D7		> 100 µM
CCN(CC)CCCC(C)Nc1ccnc2cc(Cl)ccc12 (stereo not drawn)	parasite growth, SYBR Green I	3D7		0.0171 µM and 0.0135 µM

Compound	test	system	conditions	IC50
O=C(CC1NCCCC1O)Cn1cnc2cc(Br)c(Cl)cc2c1=O (stereo not drawn)	parasite growth	conditional knockdown control line	72 h, together with: 50 nM anhydrotetracycline	0.0004 µM
COc1ncnc(NS(=O)(=O)c2ccc(N)cc2)c1OC	cell growth	erythrocytes, HB3	low-folate medium	175 ± 71.6 µM
CC1=C(Cc2cn(Cc3ccccc3)nn2)C(=O)c2ccccc2C1=O	parasite growth, [3H]hypoxanthine incorporation	NF54	72 h	0.89 µM
O[C@H](CN[C@@H](COCC1CC1)Cc1ccccc1)c1cc(Cl)cc2c1-c1ccc(Cl)cc1C2		3D7	48 h	0.0104 ± 0.0014 µM
COc1cc2c(cc1O)[C@@H](Cc1ccc(O)cc1)[N+](C)(C)CC2	parasite growth, inhibitor, SYBR Green I	3D7		3.94 µM
O=C(CCCCCONC(=O)c1nc(-c2cccnc2)cs1)NO	asexual blood-stage growth, [3H]hypoxanthine uptake	3D7	72 h	0.61 µM
CCC1=C(CC)/C(=C/c2cc(-c3ccc(OC(F)(F)F)cc3)c(C)[nH]2)N=C1c1ccc[nH]1	parasite growth, SYBR Green fluorescence	Tm90-C2B (atovaquone-resistant), asexual blood stage	72 h	> 2.5 µM
CCCCCCCNCC(O)c1cc(Cl)cc2c1-c1ccc(Cl)cc1C2 (racemic)		3D7	48 h	0.0294 ± 0.0069 µM
COc1cc(CO)c(-c2ccc3c(c2O)[C@@H](C)N[C@H](C)C3)c2cccc(O)c12	asexual parasite proliferation, SYBR Green I fluorescence	clinical isolate SB_05, Mozambique		0.0098 ± 0.0003 µM
NC(N)=Nc1ccc(-c2ccc(-c3ccc(N=C(N)N)c(Cl)c3)o2)cc1Cl	parasite growth, inhibitor, SYBR Green I	3D7		0.33 µM
Nc1ccc(S(=O)(=O)c2ccc(N)cc2)cc1	cell growth	erythrocytes, K1	low-folate medium	51.2 ± 2.62 µM
CC1=C(Cn2cc(CN)nn2)C(=O)c2ccccc2C1=O	parasite growth, [3H]hypoxanthine incorporation	NF54	72 h	> 10 µM
O=C1C(O)=C([C@H]2CC[C@H](c3ccc(Cl)cc3)CC2)C(=O)c2ccccc21	parasite growth, SYBR Green fluorescence	Dd2 (multidrug-resistant), asexual blood stage	72 h	0.000527 µM
CCCCCNC[C@H](O)c1cc(Cl)cc2c1-c1ccc(Cl)cc1C2		3D7	48 h	0.0033 ± 0.0004 µM
CC(C)(C)NC(=O)[C@@H]1CN(Cc2cnc3occc3c2)CCN1C[C@@H](O)C[C@@H](Cc1ccccc1)C(=O)N[C@H]1c2ccccc2C[C@H]1O	parasite growth, inhibitor, SYBR Green I	3D7		0.629 µM
CC1(C)Cc2c([nH]c3ccccc23)C2(N1)C(=O)Nc1ccc(Cl)cc12 (stereo not drawn)	parasite growth, [3H]hypoxanthine incorporation	NF54		> 1 µM
Cc1ccc2c(c1C)NC(=O)[C@]21NN=C(c2ccccc2)S1	parasite growth, inhibitor, SYBR Green I	3D7		0.7 µM
C[C@@H](O)C(=O)CCCCCCC(=O)Nc1ccccc1	[3H]-hypoxanthine incorporation			37.9 µM
CCN(CC)CCCC(C)Nc1ccnc2cc(Cl)ccc12 (stereo not drawn)		3D7	48 h	0.0138 ± 0.0056 µM
CC(=O)O[C@H](C)C(=O)CCCCCCC(=O)Nc1ccccc1	[3H]-hypoxanthine incorporation			40.1 µM
CC1=C(Cn2cnc([N+](=O)[O-])n2)C(=O)c2ccccc2C1=O	parasite growth, [3H]hypoxanthine incorporation	NF54	72 h	> 10 µM
O=C(Nc1ccccc1-c1nc2c(C(=O)O)cccc2o1)c1ccccc1	parasite growth, inhibitor, SYBR Green I	3D7		97.3 µM
O[C@H](CNCCCC(F)(F)F)c1cc(Cl)cc2c1-c1ccc(Cl)cc1C2		3D7	48 h	0.0083 ± 0.0001 µM
COC1=CC(c2ccc[nH]2)=N/C1=C\c1[nH]c(-c2ccc(OC)cc2)cc1-c1ccc(OC)cc1	parasite growth, SYBR Green fluorescence	Dd2 (multidrug-resistant), asexual blood stage	72 h	0.0206 µM
